# Published values gathered from unrelated publications.
# ± gives the spread as reported.
# Organism: Escherichia coli
Molecule,technique,strain,matrix,time,temperature,setting,MIC
CC[C@H](C)[C@H](NC(=O)[C@@H]1CCCN1C(=O)[C@H](CCCNC(=N)N)NC(=O)[C@@H]1CCCN1C(=O)[C@@H]1CCCN1C(=O)[C@@H](NC(=O)[C@@H]1CCCN1C(=O)[C@H](CCCNC(=N)N)NC(=O)[C@@H]1CCCN1C(=O)[C@H](CC(C)C)NC(=O)[C@H](Cc1ccc(O)cc1)NC(=O)[C@H](CO)NC(=O)CNC(=O)[C@H](CCCCN)NC(=O)[C@H](CC(=O)O)NC(=O)[C@@H](N)C(C)C)[C@@H](C)O)C(=O)N[C@@H](Cc1ccc(O)cc1)C(=O)N[C@@H](CC(N)=O)C(=O)N[C@@H](CCCNC(=N)N)C(=O)N[C@@H](CC(N)=O)C(=O)O,broth microdilution,BW25113,5% M9 medium,,,,0.3 ± 0.07 µM
CC(C)C[C@H](NC(=O)[C@H](CCCCN)NC(=O)[C@H](Cc1c[nH]c2ccccc12)NC(=O)[C@H](CCCCN)NC(=O)[C@H](CC(C)C)NC(=O)[C@H](Cc1c[nH]c2ccccc12)NC(=O)[C@H](CC(C)C)NC(=O)[C@H](CCCCN)NC(=O)[C@H](CC(C)C)NC(=O)[C@H](CCCCN)NC(=O)[C@H](CCCCN)NC(=O)[C@@H](N)Cc1c[nH]c2ccccc12)C(=O)N[C@@H](Cc1c[nH]c2ccccc12)C(N)=O,,ATCC 25922,,1 h,37 °C,non-dividing cells in PBS,1.56 µg/mL
CC[C@H](C)[C@H](NC(=O)[C@H](C)NC(=O)[C@H](CCC(=O)O)NC(=O)[C@H](Cc1c[nH]cn1)NC(=O)[C@H](CC(C)C)NC(=O)CNC(=O)[C@H](CCC(N)=O)NC(=O)[C@H](Cc1ccccc1)NC(=O)[C@@H](NC(=O)[C@H](CCCCN)NC(=O)[C@H](CCCCN)NC(=O)[C@H](CC(C)C)NC(=O)[C@@H](NC(=O)[C@H](CC(N)=O)NC(=O)[C@H](CC(C)C)NC(=O)CN)[C@@H](C)O)C(C)C)C(=O)N[C@@H](CCCCN)C(=O)N[C@@H](CC(C)C)C(=O)N[C@H](C(=O)N[C@@H](CC(N)=O)C(=O)N[C@@H](CC(N)=O)C(=O)N[C@@H](Cc1c[nH]cn1)C(=O)N[C@H](C(=O)N[C@@H](CCC(N)=O)C(=O)O)C(C)C)[C@@H](C)CC,broth microdilution,K12,,,37 °C,,100 µM
CC[C@H](C)[C@H](NC(=O)[C@@H]1CCCN1C(=O)[C@H](CCCCN)NC(=O)[C@@H]1CCCN1C(=O)[C@@H]1CCCN1C(=O)[C@@H](NC(=O)[C@@H]1CCCN1C(=O)[C@H](CCCNC(=N)N)NC(=O)[C@@H]1CCCN1C(=O)[C@H](CCCNC(=N)N)NC(=O)[C@H](Cc1ccc(O)cc1)NC(=O)[C@H](CO)NC(=O)CNC(=O)[C@H](CCCCN)NC(=O)[C@H](CC(=O)O)NC(=O)[C@@H](N)C(C)C)[C@@H](C)O)C(=O)N[C@@H](Cc1ccc(O)cc1)C(=O)N[C@@H](CC(N)=O)C(=O)N[C@@H](CCCNC(=N)N)C(=O)N[C@@H](CC(N)=O)C(=O)O,,JW0368 ΔsbmA,,18 h,37 °C,12.5% Mueller-Hinton broth,0.3 ± 0.07 µM
N=C(N)NCCC[C@H](NC(=O)[C@H](Cc1c[nH]cn1)NC(=O)[C@@H]1CCCN1C(=O)[C@H](CS)NC(=O)[C@@H](N)Cc1ccc(O)cc1)C(=O)N[C@@H](CS)C(=O)O,broth microdilution,MTCC 443,,,37 °C,,45 µg/mL
CC[C@H](C)[C@H](NC(=O)CN)C(=O)N[C@@H](CCCCN)C(=O)N[C@@H](Cc1ccccc1)C(=O)N[C@@H](Cc1ccccc1)C(=O)N[C@@H](CC(C)C)C(=O)N[C@@H](CCCCN)C(=O)N[C@@H](CCCCN)C(=O)N[C@@H](CC(C)C)C(=O)N[C@@H](CCCCN)C(=O)N[C@@H](CCCCN)C(=O)N[C@@H](Cc1c[nH]cn1)C(N)=O,,ATCC 25922,,1 h,37 °C,non-dividing cells in PBS,50 to 100 µg/mL
CC[C@H](C)[C@H](NC(=O)[C@H](CC(=O)O)NC(=O)[C@H](Cc1ccccc1)NC(=O)[C@H](CC(C)C)NC(=O)CN)C(=O)N[C@H](C(=O)N[C@@H](CCCCN)C(=O)N[C@@H](CCCCN)C(=O)N[C@H](C(=O)N[C@H](C(=O)NCC(=O)N[C@@H](C)C(=O)N[C@@H](CC(C)C)C(=O)NCC(N)=O)C(C)C)C(C)C)C(C)C,,ATCC 25922,CAMHB,18 h,37 °C,,> 23 µM
CC(C)C[C@H](NC(=O)[C@H](CCCNC(=N)N)NC(=O)[C@@H]1CCCN1C(=O)[C@H](CCCNC(=N)N)NC(=O)[C@@H]1CCCN1C(=O)[C@@H]1CCCN1C(=O)[C@H](CCCNC(=N)N)NC(=O)[C@@H]1CCCN1C(=O)[C@H](CCC(N)=O)NC(=O)[C@@H]1CCCN1C(=O)[C@H](CCCCN)NC(=O)[C@H](Cc1ccc(O)cc1)NC(=O)[C@@H](NC(=O)[C@@H]1CCCN1C(=O)[C@H](CCCCN)NC(=O)[C@H](CC(N)=O)NC(=O)[C@H](CC(N)=O)NC(=O)CN)C(C)C)C(=O)O,broth microdilution,BW25113 parental,Mueller-Hinton broth,18 h,37 °C,,0.096 ± 0.023 µM
CC(C)C[C@@H](N)C(=O)N[C@@H](C(=O)N[C@H](Cc1c[nH]c2ccccc12)C(=O)N[C@H](CCCCN)C(=O)N[C@H](CC(C)C)C(=O)N[C@H](Cc1c[nH]c2ccccc12)C(=O)N[C@H](Cc1c[nH]c2ccccc12)C(=O)N[C@H](CCCNC(=N)N)C(=O)N[C@H](CC(C)C)C(=O)N[C@H](CCCNC(=N)N)C(=O)N[C@H](Cc1c[nH]c2ccccc12)C(=O)N[C@H](CC(C)C)C(=O)N[C@H](CCCCN)C(N)=O)C(C)C,,ATCC 25922,,1 h,37 °C,non-dividing cells in PBS,50 µg/mL
CC(C)C[C@H](NC(=O)[C@H](C)NC(=O)[C@H](CC(C)C)NC(=O)[C@@H](NC(=O)[C@@H](N)CO)[C@@H](C)O)C(=O)N[C@H](C(=O)N[C@@H](CC(C)C)C(=O)N[C@@H](CCCNC(=N)N)C(=O)N[C@@H](CC(C)C)C(=O)N[C@@H](CCCNC(=N)N)C(=O)NCC(=O)NCC(=O)O)C(C)C,,DH5α,,,37 °C,≥90% viability decrease,10 µM
CC[C@H](C)[C@H](NC(=O)[C@@H]1CCCN1C(=O)[C@H](Cc1c[nH]cn1)NC(=O)[C@H](CCCCN)NC(=O)[C@@H]1CCCN1C(=O)[C@@H](N)CCCNC(=N)N)C(=O)N[C@@H](CCCCN)C(=O)N[C@@H](Cc1c[nH]cn1)C(=O)N[C@@H](CCC(N)=O)C(=O)NCC(=O)N[C@@H](CC(C)C)C(=O)N1CCC[C@H]1C(=O)N[C@@H](CCC(N)=O)C(=O)N[C@@H](CCC(=O)O)C(=O)N[C@H](C(=O)N[C@@H](CC(C)C)C(=O)N[C@@H](CC(N)=O)C(=O)N[C@@H](CCC(=O)O)C(=O)N[C@@H](CC(N)=O)C(=O)N[C@@H](CC(C)C)C(=O)N[C@@H](CC(C)C)C(=O)N[C@@H](CCCNC(=N)N)C(=O)N[C@@H](Cc1ccccc1)C(=O)O)C(C)C,broth microdilution,K12,,,37 °C,,> 100 µM
CC[C@H](C)[C@H](NC(=O)[C@H](Cc1ccccc1)NC(=O)CN)C(=O)N[C@@H](CCCCN)C(=O)N[C@H](C(=O)N[C@H](C(=O)N[C@@H](CCCNC(=N)N)C(=O)N[C@@H](CCCCN)C(=O)N[C@@H](CC(C)C)C(=O)N[C@@H](CC(C)C)C(=O)N[C@@H](CCCNC(=N)N)C(=O)N[C@@H](CC(C)C)C(=O)N[C@@H](Cc1ccccc1)C(N)=O)C(C)C)[C@@H](C)CC,,ATCC 25922,,1 h,37 °C,non-dividing cells in PBS,1.56 µg/mL
CC[C@H](C)[C@H](NC(=O)[C@H](CCCNC(=N)N)NC(=O)[C@H](Cc1c[nH]c2ccccc12)NC(=O)[C@H](CCCNC(=N)N)NC(=O)[C@@H](N)CCCCN)C(=O)N[C@@H](CCCNC(=N)N)C(=O)N[C@H](C(=O)N[C@@H](CCCNC(=N)N)C(=O)N[C@H](C(=O)N[C@H](C(=O)N[C@@H](CCCNC(=N)N)C(=O)N[C@@H](CCCCN)C(=O)N[C@@H](CS)C(=O)O)[C@@H](C)CC)C(C)C)C(C)C,,ATCC 25922,,24 h,37 °C,,15 µM
CC[C@H](C)[C@H](NC(=O)[C@@H]1CCCN1C(=O)[C@H](CCCCN)NC(=O)[C@@H]1CCCN1C(=O)[C@@H]1CCCN1C(=O)[C@@H](NC(=O)[C@@H]1CCCN1C(=O)[C@H](CCCNC(=N)N)NC(=O)[C@@H]1CCCN1C(=O)[C@H](CCCCN)NC(=O)[C@H](Cc1ccc(O)cc1)NC(=O)[C@H](CO)NC(=O)CNC(=O)[C@H](CCCCN)NC(=O)[C@H](CC(=O)O)NC(=O)[C@@H](N)C(C)C)[C@@H](C)O)C(=O)N[C@@H](Cc1ccc(O)cc1)C(=O)N[C@@H](CC(N)=O)C(=O)N[C@@H](CCCNC(=N)N)C(=O)N[C@@H](CC(N)=O)C(=O)O,,JW0368 ΔsbmA,,18 h,37 °C,12.5% Mueller-Hinton broth,0.834 ± 0.382 µM
CC[C@H](C)[C@H](NC(=O)[C@H](CO)NC(=O)[C@@H](NC(=O)[C@H](C)NC(=O)[C@H](CCC(N)=O)NC(=O)CNC(=O)[C@@H](NC(=O)[C@@H](NC(=O)CNC(=O)[C@@H](NC(=O)[C@H](C)NC(=O)[C@@H]1CCCN1C(=O)CNC(=O)[C@H](C)NC(=O)[C@H](CCCCN)NC(=O)[C@@H](NC(=O)[C@@H](NC(=O)CNC(=O)[C@H](CC(=O)O)NC(=O)[C@H](CCCNC(=N)N)NC(=O)[C@@H](NC(=O)[C@H](CCCCN)NC(=O)[C@H](CCCNC(=N)N)NC(=O)CNC(=O)[C@@H](NC(=O)[C@H](CCCCN)NC(=O)[C@H](CCC(=O)O)NC(=O)[C@@H](NC(=O)[C@H](CCCCN)NC(=O)[C@H](CCCCN)NC(=O)[C@H](CC(C)C)NC(=O)[C@H](Cc1ccccc1)NC(=O)[C@H](CCCCN)NC(=O)[C@H](Cc1c[nH]c2ccccc12)NC(=O)[C@@H](N)CCCNC(=N)N)[C@@H](C)CC)C(C)C)C(C)C)C(C)C)[C@@H](C)CC)C(C)C)C(C)C)C(C)C)[C@@H](C)O)C(=O)N[C@@H](Cc1ccc(O)cc1)C(=O)N[C@@H](CCCCN)C(N)=O,broth microdilution,DH5α,,20 h,37 °C,,2.1 ± 0.7 µg/mL
gentamicin,broth microdilution,ATCC 25922,,24 h,37 °C,,0.5 µg/mL
CC(C)C[C@H](NC(=O)[C@H](CCCNC(=N)N)NC(=O)[C@@H]1CCCN1C(=O)[C@H](Cc1c[nH]cn1)NC(=O)[C@@H]1CCCN1C(=O)[C@@H]1CCCN1C(=O)[C@H](CCCNC(=N)N)NC(=O)[C@@H]1CCCN1C(=O)[C@H](CCC(N)=O)NC(=O)[C@@H]1CCCN1C(=O)[C@H](CCCCN)NC(=O)[C@H](Cc1ccc(O)cc1)NC(=O)[C@@H](NC(=O)[C@@H]1CCCN1C(=O)[C@H](CCCCN)NC(=O)[C@H](CC(N)=O)NC(=O)[C@H](CC(N)=O)NC(=O)CN)C(C)C)C(=O)O,broth microdilution,BW25113 parental,Mueller-Hinton broth,18 h,37 °C,,0.017 ± 0.009 µM
CC(C)[C@H](NC(=O)[C@H](CO)NC(=O)[C@H](Cc1c[nH]cn1)NC(=O)[C@H](Cc1ccccc1)NC(=O)[C@H](C)NC(=O)[C@H](CCCCN)NC(=O)CNC(=O)[C@H](Cc1ccccc1)NC(=O)CN)C(=O)N[C@@H](CO)C(=O)N[C@@H](CC(N)=O)C(=O)N[C@@H](Cc1ccccc1)C(=O)N[C@@H](C)C(=O)N[C@@H](CCCCN)C(=O)N[C@@H](CCCCN)C(=O)N[C@@H](Cc1c[nH]cn1)C(=O)N[C@@H](CCCCN)C(=O)N[C@H](C(=O)N[C@@H](C)C(N)=O)[C@@H](C)O,broth microdilution,K12,,,37 °C,,> 100 µM
